Measurements of several laboratories.
Parts stem from different laboratories: compare values within a part only. Substitutions count along the parent as printed.

Series 1 — target: CCND1, cyclin fold, Cln2 fusion (human); technique: yeast growth competition, sequencing; matrix: yeast; setting: strong parent motif; relative to: not given; direction: higher = stronger binding
Parent: INSM1 docking peptide (human); PKAIRKLHFEDEV
Change | normalised enrichment score
I4R | 4.63
R5N | 0.252
D11F | 3.14
D11I | 3.03
F9C | 0.142
A3S | 1.9
F9L | 0.898
E12H | 4.36
K2T | 4.99
K6Y | 2.95
K6S | 1.91
F9N | 0.0208
R5E | 0.658

Series 2 — technique: RNA Bind-n-Seq; form: RNA; matrix: in vitro; tested at: 365 nM; relative to: no-protein control; direction: higher = stronger binding
Target: RNA binding protein fox-1 homolog 2, RRM domain, GST-SBP tag (RBFOX2, Homo sapiens, UniProt O43251-10, residues 100-194)
Setting: natural RNA segment, single round, ends assumed
Constant ends, left off below: GGGAGUUCUACAGUCCGACGAUC … UGGAAUUCUCGGGUGCCAA
Target sequence (chain): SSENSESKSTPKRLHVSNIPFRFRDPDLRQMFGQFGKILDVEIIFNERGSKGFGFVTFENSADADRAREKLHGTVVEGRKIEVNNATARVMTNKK
Sequence | RBNS enrichment (R)
ACCUUGACGUUGCAGUGCAGUUUCACAGAUCGUUGUUAGAUCUUUAUUUUUAGCCAUGCACUGUUGUGAGGAAAAAUUACCUGUCUUGACUGCCAUGUGUUCAUCAUCUU | 0.544
UUUAAGCCCAACUACUUGUCAUAUAUGUCUGAAUGUCAAAAGCUGUCAGCAGCACAACACAAUCUAUAUGACUUUCUCUUUUGCACUUCACUUGUGUAUUUUACAGUGGU | 0.454
UUGAGUUGUUUUGGAGUAAUAUCCCACAACUGGGGUAGGAAGCUCAGGACUUUUUUCUUUAAAGCUAGUCAUUUCAAAAGCAUAUUGUAUUUUUUUGAAUGACUACAGUA | 0.485
UUUCCGCAGGUCUGCUCCCCACCCCUGCCUCGGAAGAAUAAAGAGAAUGUAGUUCCCUACUCAGGCUUUCGUAGUGAUUAGCUUACUAAGGAACUGAAAAUGGGCCCCUU | 0.386
CCUCAGCCCAUCUUGCUCCCUCUUCAGCCCGCUGAGGAGCUUUCUUGGGCUGCCCCCAUCUCUCCCAACAAGGUGUACAUAUUCUGCGUAGAUGCUAGACCAACCAGCUU | 0.416
GGGAUGGAAAGCGCAUGGGCCUGUGUCCAUUGUAGAUUUCCUUCUAGAUUUCUGUGUACACACACUUGAUUGUUCUGGAUGAAUGUCUUUUUUAAUACUCCGAAAAUUUC | 3.19
UCCAUGAAUUAAAUCUGUUUCCUGUGUUAGUCAGUAUUCUUAAAUAAAAUUUAUAAUUGAAACAUGAGUGAAUGUGGACUUUUUUGGUGGAAAUGGUCUUGUUAAAUAAU | 0.828
UGAAUCUCAUUUGCCAUCUUUAGUUUUCUUAUGGAGGUUUAUACUCUUUAAACAGUUCUGAUGUAAUUUCUCAACAAAAUGUGGCUUUUAGCCUGUCAGUGAUCUAUUGG | 0.377
GGGCCGAGAGAACAUCAGAGGCAGGUAGGUUGCUUGUGGACAGCCUUAGACACCAAAUCCUUGCCUCUGGAGUGUAGCCACACACAACACAGAGAGUAACUGAAGCCUAU | 0.461
CAGUGGGUAGUGUCUAAAGCGACACUUUACUCACAGCCUGGCUUGAGUCAACAGGAACACCAUAGCACCCACAAAUACUUCUACUUGAAUCAUAUUCUGUGCUUUUUCAA | 0.285
CUGCAAGCCCCACCCUCCUUGAGACUGGAGCUGGCGUCUGCAUACGAGAGACUUGGUUGAACUUGGUUGGUCCUUGUCUGCACCCUCGACAAGACCACACUUUGGGACUU | 1.34
CCAUCUGGGUUUUAAGUUCAGAUGUGAACAUUUUUUAGUGCUUCUUUUUCUUUUACUUAAUGAACAUGUGAUAUGAGUAGUGAUGUGCAAAAGCACAGACGUUCAUGUUU | 0.416

Series 3 — technique: competition protein-binding microarray; form: double-stranded DNA, one strand shown; matrix: in vitro; tested at: 2 µM; together with: Cbf1 competitor, 0.05 µM; direction: higher = stronger binding; constant ends, left off below: … GTCTTGATTCGCTTGACGCTGCTG
Target: Phosphate system positive regulatory protein PHO4, full length, GST-tagged (PHO4, Saccharomyces cerevisiae, UniProt P07270, residues 1-312)
Setting: whole 60-bp probe, lowest competitor level
Residues (chain): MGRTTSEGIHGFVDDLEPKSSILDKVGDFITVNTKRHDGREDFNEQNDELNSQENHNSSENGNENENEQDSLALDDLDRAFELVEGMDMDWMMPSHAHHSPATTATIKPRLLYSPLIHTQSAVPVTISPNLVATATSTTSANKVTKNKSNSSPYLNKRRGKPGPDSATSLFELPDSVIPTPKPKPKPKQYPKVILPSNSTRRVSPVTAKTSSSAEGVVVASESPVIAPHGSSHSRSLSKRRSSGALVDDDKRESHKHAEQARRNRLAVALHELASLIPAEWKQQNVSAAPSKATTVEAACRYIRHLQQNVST
Sequence | fluorescence intensity
CTAACGAAGGTTTTTCACGTGGCATACAAGCCAAGT | 13300 a.u.
TTGAGCACTTGAGTATACGTGATGGAGCACACAAAG | 5190 a.u.
ATTAAGTCTCTTCATCCCGTGTACTATTACCCGACA | 6130 a.u.
GTCTTGTCTCATTGGCGGGTGGGTGTCCCCACTTCA | 5180 a.u.
TCCAGACGCTGTGGACACGTTAGACATCACCCTTGT | 6570 a.u.
AACGACACCGGCACCTTCGTGACGGCCAACTAATGG | 5280 a.u.
CATACCCAACCTTTTCACGTGAACTAAGATATTTGT | 11900 a.u.
TGCTGTAGAGTTCACCACGTGAGGTAAATATTGGGA | 14900 a.u.
CAATTACTGAAGCTTCACGTGCCAGAACGTAAAAAT | 15500 a.u.
GGTGTCCTCAAAGAATCTCAAGGTCCTAGCAGCTAA | 3170 a.u.
ATTACTTGTTGCCATCACGATACTGGCATCCGATAG | 5580 a.u.
CGGGGTTAAGTTTTTCACGTGCTTTGCTTGCAGCAG | 14700 a.u.
CATACCCAACCTTGTCACGAGACTTAAGATATTTGT | 7730 a.u.
TGCGCAACAACTTTTCACGTGAAATTATGTCTAGAA | 8130 a.u.
CTTCGGTAGCCGAGCCTCGTCTGTGTGTGTGGGAAT | 5040 a.u.
TAGAGAATGGCAATGCTCGTGCTAAAGGTGAAAAAA | 9990 a.u.
GTTAAAAATTATCCTCAGGTGATGTTTTGGTAGAAG | 3830 a.u.
CGGGGTTAAGTTTGGCATGTGGGTGGCTTGCAGCAG | 11900 a.u.
TGCGCAACAACTTGACGTGTGGGTGTATGTCTAGAA | 5840 a.u.
CGTCCTAGTGATTGTAAGGTGGGTGCCATGAGGAAG | 8770 a.u.
CTTTCCCGATCTTGGCCGGTGGGTGTAGCACATTTG | 4430 a.u.

Series 4 — technique: DHFR PCA, deep sequencing; matrix: yeast; together with: (+)-ABA 1.4 µM; relative to: wild-type fitted maximum; direction: higher = stronger binding
Target: ABI1, truncated, D143A, DHFR fusion (Arabidopsis thaliana)
Setting: methotrexate growth selection, single substitutions
Parent: PYL1, truncated, DHFR fusion (Arabidopsis thaliana); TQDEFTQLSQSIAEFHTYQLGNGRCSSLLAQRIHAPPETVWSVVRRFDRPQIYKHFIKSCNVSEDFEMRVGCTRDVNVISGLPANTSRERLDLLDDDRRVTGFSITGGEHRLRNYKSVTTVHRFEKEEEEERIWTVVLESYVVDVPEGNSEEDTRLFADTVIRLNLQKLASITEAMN; partner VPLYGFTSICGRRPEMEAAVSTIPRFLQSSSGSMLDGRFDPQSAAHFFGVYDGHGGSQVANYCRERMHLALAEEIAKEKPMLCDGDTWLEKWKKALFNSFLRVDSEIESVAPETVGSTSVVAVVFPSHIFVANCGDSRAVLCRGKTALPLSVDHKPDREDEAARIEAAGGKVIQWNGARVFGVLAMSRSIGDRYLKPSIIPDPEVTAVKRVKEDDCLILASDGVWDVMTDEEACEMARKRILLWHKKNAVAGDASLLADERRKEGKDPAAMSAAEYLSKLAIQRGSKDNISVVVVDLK
Change | relative binding score
Q167M | 52.1%
R123W | 11.1%
S87Q | 26.8%
H122E | 11.5%
H110M | 19.5%
R46Q | 63.8%
S63I | 33.7%
K116A | 22.2%
A30W | 46.6%
L169I | -5.15%
C60R | 9%
E127M | 61.7%

Series 5 — technique: Sort-seq; item: YFP reporter; matrix: E. coli; setting: PhoQ-PhoP variant library; together with: 10 µM Mg2+; relative to: high Mg2+ state; direction: higher = stronger signaling
Substance: PhoQ, residues 284 288 289 292 302 303 SSYNSA
target | fold induction
PhoP, residues 12 14 15 18 19 LHHYF (Escherichia coli, UniProt P23836) | 23.5
PhoP, residues 12 14 15 18 19 NFFVT (Escherichia coli, UniProt P23836) | 11.7
PhoP, residues 12 14 15 18 19 VGHWL (Escherichia coli, UniProt P23836) | 2.13
PhoP, residues 12 14 15 18 19 TPWTL (Escherichia coli, UniProt P23836) | 0.799

Series 6 — technique: Spec-seq; form: double-stranded DNA, one strand shown; matrix: in vitro; tested at: not given; setting: whole probe, mean of replicates; relative to: not given; direction: lower = stronger binding; constant ends, left off below: GAGTCGTCTCGTCAGCAC … CCGTAGAGCACTCAGGTC
Target: Transcription factor SOX-2, HMG box (Sox2, Mus musculus, UniProt P48432, residues 41-119)
UniProt P48432, sequence (41-119, looked up): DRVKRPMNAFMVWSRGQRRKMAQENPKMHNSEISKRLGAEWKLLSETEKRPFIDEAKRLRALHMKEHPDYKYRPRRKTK
Sequence | relative binding energy
AGGGGTT | 1.21 ln ratio
CATTGGA | -0.241 ln ratio
CATGGCG | 0.227 ln ratio
AGGCGTT | 1.32 ln ratio
CATCGCT | 0.693 ln ratio
TACCGTT | 0.768 ln ratio
AGGAGTT | 0.982 ln ratio
CATACTG | -0.193 ln ratio
TCCGGTT | 1.22 ln ratio
CATACGT | 0.116 ln ratio
ACTTGTT | -0.931 ln ratio
TTCTGTT | -0.592 ln ratio
CATCATG | 0.327 ln ratio
CATGCTA | 0.484 ln ratio
GGAAGTT | 1.27 ln ratio
CAGCGTT | 1.08 ln ratio
CATTCTT | -1.8 ln ratio

For quick reference, copied from above (series 3):
Sequence | fluorescence intensity
TCCAGACGCTGTGGACACGTTAGACATCACCCTTGT | 6570 a.u.
AACGACACCGGCACCTTCGTGACGGCCAACTAATGG | 5280 a.u.
CATACCCAACCTTTTCACGTGAACTAAGATATTTGT | 11900 a.u.
TGCTGTAGAGTTCACCACGTGAGGTAAATATTGGGA | 14900 a.u.
CAATTACTGAAGCTTCACGTGCCAGAACGTAAAAAT | 15500 a.u.
GGTGTCCTCAAAGAATCTCAAGGTCCTAGCAGCTAA | 3170 a.u.
ATTACTTGTTGCCATCACGATACTGGCATCCGATAG | 5580 a.u.
CGGGGTTAAGTTTTTCACGTGCTTTGCTTGCAGCAG | 14700 a.u.
CATACCCAACCTTGTCACGAGACTTAAGATATTTGT | 7730 a.u.
TGCGCAACAACTTTTCACGTGAAATTATGTCTAGAA | 8130 a.u.
